Assay results pooled from the literature.
Each line is one published result; not all experiments were run side by side. Numbers after ± are the reported error.
Chymotrypsin-C: Chymotrypsin-C (Homo sapiens, UniProt Q99895)

With `CC[C@H](C)[C@@H]1NC(=O)[C@H](CC(C)C)NC(=O)[C@H](CCC(=O)O)NC(=O)[C@H](CC(=O)O)NC(=O)[C@H](CCCNC(=N)N)NC(=O)[C@H](Cc2c[nH]c3ccccc23)NC(=O)[C@H](Cc2ccccc2)NC(=O)[C@H](CC(C)C)NC(=O)[C@H](CC(C)C)NC(=O)[C@H](Cc2ccc(O)cc2)NC(=O)CSC[C@@H](C(=O)NCC(=O)N[C@@H](CO)C(=O)N[C@@H](CCC(=O)O)C(=O)N[C@@H](CCCNC(=N)N)C(N)=O)NC(=O)[C@H](CC(C)C)NC(=O)[C@H](CC(C)C)NC1=O` the Kd was 7.1 nM (Induced myeloid leukemia cell differentiation protein Mcl-1 (MCL1, Homo sapiens, UniProt Q07820); binding, SPR).
`CC(C)C[C@H](NC(=O)[C@H](CCP(=O)(O)O)NC(=O)[C@@H](NC(=O)[C@@H](NC(=O)[C@H](CCCNC(=N)N)NC(=O)[C@H](CC(C)C)NC(=O)[C@H](CO)NC(=S)Nc1ccc2c(c1)C(=O)OC21c2ccc(O)cc2Oc2cc(O)ccc21)[C@@H](C)O)C(C)C)C(=O)NCC(=O)N[C@@H](C)C(=O)NCC(=O)N[C@@H](C)C(=O)N[C@@H](Cc1c[nH]c2ccccc12)C(=O)N[C@@H](CC(C)C)C(=O)N[C@H](C(=O)N1CCC[C@H]1C(=O)N[C@@H](CCCNC(=N)N)C(=O)O)C(C)C` gave a Kd of 19000 nM (14-3-3 protein eta (Homo sapiens, UniProt Q04917); binding, fluorescence anisotropy; pH 7.5, FITC-labelled phosphopeptide titration).
For `CC(C)C[C@H](NC(=O)[C@H](CO)NC(=O)[C@@H]1CCCN1C(=O)[C@H](CCC(N)=O)NC(=O)[C@@H](NC(=O)[C@H](C)NC(=O)[C@H](CCCCN)NC(=O)[C@H](CC(C)C)NC(=O)[C@H](Cc1ccc(O)cc1)NC(=O)[C@H](COP(=O)(O)O)NC(=O)[C@H](CCC(=O)O)NC(=O)[C@H](CCC(=O)O)NC(=O)[C@H](CCCNC(=N)N)NC(=O)[C@H](C)NC(=O)[C@H](C)N)[C@@H](C)O)C(=O)O`, the Kd was 4000 ± 100 nM (Membrane-associated guanylate kinase, WW and PDZ domain-containing protein 2 (Magi2, Mus musculus, UniProt Q9WVQ1); ITC; pH 8.0, 25 °C, added: tandem peptide).
For `CC(C)C[C@@H]1NC(=O)CNC(=O)[C@@H]2CSSC[C@@H]3NC(=O)[C@H]([C@@H](C)O)NC(=O)[C@H](CC(N)=O)NC(=O)[C@H](CSSC[C@@H](C(=O)N[C@@H](Cc4ccc(O)cc4)C(=O)N[C@@H](CCC(N)=O)C(=O)O)NC(=O)[C@H](CC(C)C)NC(=O)[C@H](C)NC1=O)NC(=O)[C@H](CCCCN)NC(=O)[C@H](CC(=O)O)NC(=O)[C@H](CCCCN)NC(=O)[C@H](Cc1ccccc1)NC(=O)[C@H]([C@@H](C)O)NC(=O)[C@H]([C@@H](C)O)NC(=O)CNC(=O)[C@@H]1CCCN1C(=O)[C@H](CCC(=O)O)NC(=O)[C@@H](NC(=O)[C@@H](NC(=O)[C@@H](NC(=O)[C@H](CCC(=O)O)NC(=O)[C@H](CO)NC(=O)CN)C(C)C)[C@@H](C)O)CSSC[C@H](NC(=O)[C@H](CCCNC(=N)N)NC3=O)C(=O)NCC(=O)N[C@@H](CO)C(=O)N[C@@H](CC(=O)O)C(=O)NCC(=O)N[C@@H](CCCCN)C(=O)N[C@@H](CO)C(=O)N[C@@H](C)C(=O)N[C@@H](Cc1ccc(O)cc1)C(=O)N2`, the Kd was 21.8 nM (Chymotrypsin-C; cell-free assay, FP; pH 8).
For `CC[C@H](C)[C@H](NC(=O)[C@H](CCC(=O)O)NC(=O)[C@H](CCCNC(=N)N)NC(=O)[C@H](C)NC(=O)[C@H](C)NC(=O)[C@H](CCC(N)=O)NC(=O)[C@H](CCC(=O)O)NC(=O)[C@H](CCC(=O)O)NC(C)=O)C(=O)NCC(=O)N[C@@H](C)C(=O)N[C@@H](CCC(N)=O)C(=O)N[C@@H](CC(C)C)C(=O)N[C@@H](CCCNC(=N)N)C(=O)N[C@@H](CCCNC(=N)N)C(=O)N[C@@H](CCSC)C(=O)N[C@@H](C)C(=O)N[C@@H](CC(=O)O)C(=O)N[C@@H](CC(=O)O)C(=O)N[C@@H](CC(C)C)C(=O)N[C@@H](CC(N)=O)C(=O)N[C@@H](C)C(=O)N[C@@H](CCC(N)=O)C(=O)N[C@@H](Cc1ccc(O)cc1)C(=O)N[C@@H](CCC(=O)O)C(=O)N[C@@H](CCCNC(=N)N)C(N)=O`, the Kd was 50 nM (BCL-2 ΔC human; binding, ITC).
`CSCC[C@@H]1NC(=O)[C@H](CCSC)NC(=O)[C@H]([C@@H](C)O)NC(=O)[C@@H]2CSSC[C@@H]3NC(=O)[C@H]([C@@H](C)O)NC(=O)[C@H](CC(N)=O)NC(=O)[C@H](CSSC[C@@H](C(=O)N[C@@H](CC(=O)O)C(=O)N[C@@H](CCC(N)=O)C(=O)O)NC(=O)[C@H](CC(C)C)NC1=O)NC(=O)[C@H](CCCCN)NC(=O)[C@H](CC(=O)O)NC(=O)[C@H](CCCCN)NC(=O)[C@H](Cc1ccccc1)NC(=O)[C@H]([C@@H](C)O)NC(=O)[C@H]([C@@H](C)O)NC(=O)CNC(=O)[C@@H]1CCCN1C(=O)[C@H](CCC(=O)O)NC(=O)[C@@H](NC(=O)[C@@H](NC(=O)[C@@H](NC(=O)[C@H](CCC(=O)O)NC(=O)[C@H](CO)NC(=O)CN)C(C)C)[C@@H](C)O)CSSC[C@H](NC(=O)[C@H](CCCNC(=N)N)NC3=O)C(=O)NCC(=O)N[C@@H](CO)C(=O)N[C@@H](CC(=O)O)C(=O)NCC(=O)N[C@@H](CCCCN)C(=O)N[C@@H](CO)C(=O)N[C@@H](C)C(=O)N[C@@H](C)C(=O)N2` has a Kd of 0.4 nM (Chymotrypsin-C; cell-free assay, FP; pH 8).
`O=C(N[C@@H]1c2ccccc2C[C@H]1N1CCCC1)c1ccc(-c2ccnc3[nH]ccc23)nc1` gave a Kd of 200 nM (Protein kinase C epsilon type (PRKCE, Homo sapiens, UniProt Q02156); binding, competition with immobilised ligand).
With `C=C(C)C1CCC2(C(=O)NCCCCCCCC(=O)NCC(=O)O)CCC3(C)C(CCC4C5(C)CCC(O)C(C)(C)C5CCC43C)C12` (stereo not drawn) the Kd was 6700 nM (Envelope glycoprotein gp160, HR2 peptide (Human immunodeficiency virus type 1 group M subtype B, UniProt P03377); binding).
For `CC[C@H](C)[C@H](NC(=O)[C@@H](NC(=O)[C@@H]1CCCN1C(=O)[C@@H](NC(=O)[C@@H]1CCCN1C(=O)[C@H](CCCCN)NC(=O)[C@H](CCCCN)NC(=O)[C@H](CO)NC(=O)CNC(=O)CCOCCOCCOCCOCc1cn(CCCNC(=O)CCC2=[N+]3C(=Cc4c(C)cc(C)n4[B-]3(F)F)C=C2)nn1)C(C)C)[C@@H](C)CC)C(=O)N[C@@H](Cc1ccc(O)cc1)C(=O)N[C@H]1CSSC[C@@H](C(=O)N[C@@H](CCC(N)=O)C(=O)N[C@@H](CCCNC(=N)N)C(=O)N[C@@H](CCSC)C(=O)O)NC(=O)[C@H](CCCCN)NC(=O)CNC(=O)[C@H]([C@@H](C)O)NC(=O)[C@H](CCCNC(=N)N)NC(=O)[C@H](CCCNC(=N)N)NC(=O)[C@H](CC(N)=O)NC1=O`, the Kd was 3.8 ± 1 nM (lptA (Escherichia coli, UniProt P0ADV1); binding, fluorescence polarization; added: lptA titrated).
The Kd of `CC(=O)N[C@@H](CCCNC(=N)N)C(=O)N[C@H](C(=O)N[C@@H](CCCCN)C(=O)N[C@@H](CO)C(=O)N[C@@H](CCCNC(=N)N)C(=O)N[C@H](C(=O)N[C@@H](Cc1c[nH]c2ccccc12)C(=O)N[C@@H](C)C(=O)N[C@@H](Cc1ccccc1)C(N)=O)[C@@H](C)OP(=O)(O)O)[C@@H](C)O` is reported as 22 nM (14-3-3 protein epsilon (Homo sapiens, UniProt P62258); binding, SPR; pH 7.4).
For `Cc1n[nH]c(C)c1CCCOc1cc(OCCCCCCNCCOCCOCCn2cc(CNc3ccc(C(=O)O)cc3)nn2)cc(C(=O)O)c1`, the Kd was 213 nM (Transthyretin (TTR, Homo sapiens, UniProt P02766); fluorescence polarization displacement).
`CC(C)C[C@H](NC(=O)[C@H](CO)NC(=O)[C@@H]1CCCN1C(=O)[C@H](CCC(N)=O)NC(=O)[C@@H](NC(=O)[C@H](C)NC(=O)[C@H](CCCCN)NC(=O)[C@H](CC(C)C)NC(=O)[C@H](Cc1ccc(O)cc1)NC(=O)[C@H](COP(=O)(O)O)NC(=O)[C@H](CCC(=O)O)NC(=O)[C@H](CCCNC(=N)N)NC(=O)[C@H](CCCNC(=N)N)NC(=O)[C@H](C)NC(=O)[C@H](C)N)[C@@H](C)O)C(=O)O` has a Kd of 360 ± 20 nM (Membrane-associated guanylate kinase, WW and PDZ domain-containing protein 1 (Magi1, Mus musculus, UniProt Q6RHR9); isothermal titration calorimetry; mouse; pH 8.0, 25 °C).
`CC[C@H](C)[C@H](NC(=O)[C@H](CO)NC(=O)[C@H](CO)NC(=O)[C@H](CCC(=O)O)NC(=O)[C@H](CCC(=O)O)NC(=O)[C@H](CCCCN)NC(=O)[C@H](CO)NC(=O)[C@@H](NC(=O)[C@H](CO)NC(=O)[C@H](CC(C)C)NC(=O)[C@H](Cc1ccccc1)NC(=O)[C@H](CCCNC(=N)N)NC(=O)[C@H](C)NC(=O)[C@H](Cc1ccccc1)NC(=O)[C@H](Cc1ccccc1)NC(=O)[C@@H]1CCCN1C(=O)[C@H](CC(C)C)NC(=O)[C@H](C)NC(=O)[C@H](CCCCN)NC(=O)CNC(=O)[C@H](CCC(N)=O)NC(=O)[C@H](CCC(N)=O)NC(=O)[C@H](CC(=O)O)NC(=O)[C@H](CC(N)=O)NC(=O)[C@@H]1CCCN1C(=O)[C@H](Cc1ccc(O)cc1)NC(=O)[C@H](C)NC(=O)[C@@H](N)CCSC)C(C)C)C(=O)N[C@@H](CCCCN)C(=O)N[C@@H](CO)C(=O)N1CCC[C@H]1C(=O)N[C@@H](CO)C(=O)N1CCC[C@H]1C(=O)N[C@@H](CC(=O)O)C(=O)N[C@@H](Cc1c[nH]cn1)C(=O)N[C@@H](CCC(=O)O)C(=O)N[C@H](C(=O)N[C@@H](CO)C(=O)N[C@H](C(=O)N[C@@H](CCCNC(=N)N)C(=O)N[C@@H](CCCCN)C(=O)N[C@@H](Cc1ccc(O)cc1)C(=O)N1CCC[C@H]1C(=O)N[C@@H](CO)C(=O)N[C@@H](CC(=O)O)C(=O)N[C@@H](Cc1c[nH]c2ccccc12)C(=O)N[C@@H](CCC(=O)O)C(=O)N[C@@H](CCC(=O)O)C(=O)N[C@@H](Cc1c[nH]c2ccccc12)C(=O)O)[C@@H](C)O)[C@@H](C)CC` gave a Kd of 575 ± 302 nM (uncharacterized protein (Microcystis aeruginosa MRC, UniProt B2G3D0, E294A/N296A)).
For `CSCC[C@H](NC=O)C(=O)N[C@@H](CCCNC(=N)N)C(=O)N[C@H](C(=O)NCC(=O)N[C@@H](CC(N)=O)C(=O)N[C@@H](C)C(=O)N[C@@H](CC(N)=O)C(=O)NCC(=O)NCC(=O)N[C@@H](CCCCNC(=S)Nc1ccc2c(c1)C(=O)OC21c2ccc(O)cc2Oc2cc(O)ccc21)C(=O)O)[C@@H](C)O`, the Kd was 13100 ± 570 nM (Uncharacterized protein YejA (yejA, Escherichia coli, UniProt P33913, R69A); binding, fluorescence polarisation; YejA variant R51A).
`CC(=O)NCCCC[C@H](NC(=O)CNC(=O)CNC(=O)[C@@H](NC(=O)[C@H](CO)NC(=O)[C@H](CCCCN)NC(=O)[C@H](CCCNC(=N)N)NC(=O)[C@H](C)NC(=O)[C@@H](NC(=O)[C@H](CCC(N)=O)NC(=O)[C@H](CCCCN)NC(=O)[C@@H](NC(=O)[C@@H](N)CCCNC(=N)N)[C@@H](C)O)[C@@H](C)O)[C@@H](C)O)C(=O)N[C@@H](C)C(=O)N1CCC[C@H]1C(=O)N[C@@H](CCCNC(=N)N)C(=O)N[C@@H](CCCCN)C(=O)N[C@@H](CCC(N)=O)C(=O)O` has a Kd of 120000 ± 5500 nM (YEATS domain-containing protein 4, YEATS domain (Homo sapiens, UniProt O95619); isothermal titration calorimetry; pH 7.6, 25 °C, added: histone peptide).
